Assay results collected from several papers.
Each numbered part is a random draw from the data of one study; scales do not carry over between parts.

Sample 1 — tested at: 0.1 µM; reference: DMSO
SMILES: CNC(=N)NCCC[C@H](NC(=O)[C@H](CC(C)C)NC(=O)NNC(=O)[C@H](Cc1ccccc1)NC(=O)[C@H](CO)NC(=O)[C@H](CC(N)=O)NC(=O)[C@@H](Cc1cccnc1)NC(=O)[C@H](N)Cc1ccc(O)cc1)C(=O)NCC(N)=O
For sample I colorectal tumour organoid; replicate 2: viability read 120%.
sample B colorectal tumour organoid — viability: 109%.
sample C colorectal tumour organoid — viability: 94.3%.

Sample 2 — read-out: peptide-MHC binding; molecule type: peptide; tested at: concentration not given
Target: HLA class I histocompatibility antigen, A alpha chain, allele A*26:03 (Homo sapiens, UniProt P04439)
`RHDITGFIL` — result for binding: “inactive”.
`SEFWLNYTA` — result for binding: “inactive”.
Under binding, `SLYKYLLLR` is recorded as “inactive”.
For `IFLIITKVF`, binding read “inactive”.
Under binding, `AVFLSYIGY` is recorded as “inactive”.
For `CVFKFIVAK`, binding read “inactive”.
`SYLKPHIFE`: binding “inactive”.
`IYCGFKFAW` — result for binding: “inactive”.
Under binding, `EELKSLYNTV` is recorded as “inactive”.
For `KLYPNVDFY`, binding read “inactive”.
Under binding, `NQQVTNSKY` is recorded as “inactive”.
`GEIFGLLGP` — result for binding: “inactive”.
`LLRRRPYPL`: binding “inactive”.
Under binding, `LYNTIATLY` is recorded as “inactive”.
`VLYCVHQEI`: binding “inactive”.
Under binding, `HVFVCGNNM` is recorded as “inactive”.
`ATNDGLIKK` — result for binding: “inactive”.
For `GTIIAHGGL`, binding read “inactive”.

Sample 3 — method: RNA Bind-n-Seq; molecule type: RNA; medium: in vitro; tested at: 365 nM; reference: no-protein control; direction: higher = stronger binding
Target: RNA binding protein fox-1 homolog 2, RRM domain, GST-SBP tag (RBFOX2, Homo sapiens, UniProt O43251-10, residues 100-194)
Setting: natural RNA segment, single round, ends assumed
Residues (chain): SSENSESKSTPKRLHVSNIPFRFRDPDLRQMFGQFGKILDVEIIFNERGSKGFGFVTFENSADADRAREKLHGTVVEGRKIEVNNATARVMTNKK
For `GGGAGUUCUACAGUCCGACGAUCCCUUCCUGGCCUCACAACCACCACAGUGAUUUCCUGUAGUGUCUUACACUUCCAUGUCACCACAGCGUGGAGCAUUAGAGAAAAGCCUGGAUAGACUUUUAGUUGAUAGAUGGAAUUCUCGGGUGCCAA`, “RBNS enrichment (R)” read 0.267.
`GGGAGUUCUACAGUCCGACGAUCUCUCCUGAACCAAACAAACCUGUUGGUUGGGAGACUGCCCAGACAUGAUUGAUGACGGGUUCCCGCCUGCUGUCCCCUCCCUGAUCACACAGCUAACGAGGCUGCCUCCAUGGAAUUCUCGGGUGCCAA` — result for “RBNS enrichment (R)”: 0.943.
`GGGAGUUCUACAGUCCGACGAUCUAGAUUAGCCAUCUUUCAAAUUCACUUUUAUUUCAGUCCUUAUAUUUCAUAUACUUCCGUCUCGAUGCUGUUAACAACUUCUGAUAACAUGGAAAAUUCAAGGAUUGUUUUGGAAUUCUCGGGUGCCAA` — result for “RBNS enrichment (R)”: 0.479.
`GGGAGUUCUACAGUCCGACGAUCUUUCUGAUUUCAUAAUUCAGAACUAAAUUUUUCAUAGAAGUGUUGAGCCAUGCUACAGUUAGUCUUGUCCCAAUUAAAAUACUAUGCAGUAUCUCUUACAUCAGUAGCAUUGGAAUUCUCGGGUGCCAA`: “RBNS enrichment (R)” 0.423.
`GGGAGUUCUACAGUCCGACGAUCCUGAAAUCAAGCAGGAGAUUGAGAGCCACUGACUGCACCCCAGCUUUCCGUCUGCGACCUCACUCACAGGACUUGAGUAUUUCCGACCUCACGGGUCACCCCAGCCCUCUUGGAAUUCUCGGGUGCCAA`: “RBNS enrichment (R)” 0.38.
Under “RBNS enrichment (R)”, `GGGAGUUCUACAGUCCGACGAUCCUUUAUUUCAAGAAAUGCAUAGAUAAGGGAGAAGAAAGGCUUCAAGGAUUCAUGGUUAAGAAGUGUGUAUGUUCUGAAGUGAAGGACCAGUAAGAAAUACAAGCCAGGCCUGGAAUUCUCGGGUGCCAA` is recorded as 2.3.
Under “RBNS enrichment (R)”, `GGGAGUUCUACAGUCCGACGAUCCCCUGUAAUUAAAAACAAAGGCUAGGUAACUAUUGUGCCAGUGUUGACAGUUUAAACUGCUAACAGAUUGAGAGAUCCCUGCUCAGAAACCUCACCUUUAGUGCUUUCUUUGGAAUUCUCGGGUGCCAA` is recorded as 0.308.
For `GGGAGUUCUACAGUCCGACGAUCUUUGCACUUACAAAAUCAUGUAAAUAUGUCACAUUUUGUUUAACAUUAUUUUUCCAAGUGUUUAGGUAAUAAUGUAUUACUUUGAAUUCAGAUUAAUGUUCUACUACUUGUGGAAUUCUCGGGUGCCAA`, “RBNS enrichment (R)” read 0.321.

Sample 4 — method: RNA Bind-n-Seq; molecule type: RNA; medium: in vitro; tested at: 15 pmol; setting: 4-mer, random 30-nt RNA, single round; together with: 3 µM DMDA-PatA, 2 mM AMP-PNP; reference: input library; direction: higher = stronger binding
Target: Eukaryotic initiation factor 4A-I (EIF4A1, Homo sapiens, UniProt P60842, residues 1-406, full length assumed)
Chain of UniProt P60842 (whole entry, looked up): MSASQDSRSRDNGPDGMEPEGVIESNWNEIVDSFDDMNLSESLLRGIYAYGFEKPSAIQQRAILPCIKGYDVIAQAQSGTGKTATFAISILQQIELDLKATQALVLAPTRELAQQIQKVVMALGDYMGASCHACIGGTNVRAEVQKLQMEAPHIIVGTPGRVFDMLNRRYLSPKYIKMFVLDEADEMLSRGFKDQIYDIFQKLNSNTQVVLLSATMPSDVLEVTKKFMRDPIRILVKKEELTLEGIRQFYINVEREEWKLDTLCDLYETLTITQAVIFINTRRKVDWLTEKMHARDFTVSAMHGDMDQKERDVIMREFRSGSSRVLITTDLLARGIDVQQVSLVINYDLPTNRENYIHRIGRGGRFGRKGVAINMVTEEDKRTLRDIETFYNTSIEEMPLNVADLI
`UCCA` gave a 4-mer enrichment of 0.394 fold.
With `GAGG` the 4-mer enrichment was 1.02 fold.
For `ACGG`, the 4-mer enrichment was 0.787 fold.
`UUGA` has a 4-mer enrichment of 1.11 fold.
For `CCAG`, the 4-mer enrichment was 0.508 fold.
`ACUA` has a 4-mer enrichment of 0.896 fold.
For `CUGU`, the 4-mer enrichment was 1.32 fold.
`UGGG` gave a 4-mer enrichment of 1.67 fold.

For quick reference, copied from above (sample 2):
`IYCGFKFAW` — result for binding: “inactive”.
Under binding, `LYNTIATLY` is recorded as “inactive”.
`ATNDGLIKK` — result for binding: “inactive”.
Under binding, `EELKSLYNTV` is recorded as “inactive”.
Under binding, `SLYKYLLLR` is recorded as “inactive”.
